Measurements gathered from unrelated publications.
Numbered parts are unrelated; each lists some results of a single study. Positions count from the first letter of the parent shown.
Chain of UniProt P78368 (whole entry, looked up): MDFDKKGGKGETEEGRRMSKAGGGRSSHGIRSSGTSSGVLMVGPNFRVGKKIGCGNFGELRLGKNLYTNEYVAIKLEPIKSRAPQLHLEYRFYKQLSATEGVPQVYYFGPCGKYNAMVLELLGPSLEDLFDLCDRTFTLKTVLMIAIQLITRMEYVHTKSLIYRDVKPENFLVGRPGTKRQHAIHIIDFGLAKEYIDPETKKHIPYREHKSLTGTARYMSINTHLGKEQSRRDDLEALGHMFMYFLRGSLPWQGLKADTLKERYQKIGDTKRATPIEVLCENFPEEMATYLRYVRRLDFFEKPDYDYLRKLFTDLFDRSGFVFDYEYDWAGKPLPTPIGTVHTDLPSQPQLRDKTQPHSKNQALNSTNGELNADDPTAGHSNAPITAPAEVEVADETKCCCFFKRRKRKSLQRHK
Chain of UniProt P49841 (whole entry, looked up): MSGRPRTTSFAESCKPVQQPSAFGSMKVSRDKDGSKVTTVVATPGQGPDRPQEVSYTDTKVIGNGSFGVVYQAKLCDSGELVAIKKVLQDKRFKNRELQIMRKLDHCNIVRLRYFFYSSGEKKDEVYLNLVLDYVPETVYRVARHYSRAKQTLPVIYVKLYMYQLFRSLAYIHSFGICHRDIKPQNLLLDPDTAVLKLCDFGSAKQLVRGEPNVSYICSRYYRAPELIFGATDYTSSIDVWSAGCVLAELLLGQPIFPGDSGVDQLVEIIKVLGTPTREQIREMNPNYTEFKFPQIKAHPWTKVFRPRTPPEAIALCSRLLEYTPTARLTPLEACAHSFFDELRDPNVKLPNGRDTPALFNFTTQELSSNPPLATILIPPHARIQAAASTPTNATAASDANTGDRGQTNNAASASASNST
Chain of UniProt Q8WTQ7 (whole entry, looked up): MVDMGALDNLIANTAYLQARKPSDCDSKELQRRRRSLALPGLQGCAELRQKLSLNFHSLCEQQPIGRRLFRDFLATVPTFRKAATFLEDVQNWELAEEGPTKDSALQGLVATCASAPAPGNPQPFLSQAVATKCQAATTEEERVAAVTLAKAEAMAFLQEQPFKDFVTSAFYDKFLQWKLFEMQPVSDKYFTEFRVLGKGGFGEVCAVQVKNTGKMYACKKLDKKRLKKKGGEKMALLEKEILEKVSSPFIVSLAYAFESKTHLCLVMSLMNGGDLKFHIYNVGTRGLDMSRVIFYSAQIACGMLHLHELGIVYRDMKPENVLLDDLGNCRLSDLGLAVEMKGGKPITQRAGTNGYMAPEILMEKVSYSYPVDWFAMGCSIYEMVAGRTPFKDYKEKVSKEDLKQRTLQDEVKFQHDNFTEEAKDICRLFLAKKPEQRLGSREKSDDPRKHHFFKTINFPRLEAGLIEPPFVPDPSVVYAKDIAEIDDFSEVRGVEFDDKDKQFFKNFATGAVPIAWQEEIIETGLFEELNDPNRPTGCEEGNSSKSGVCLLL
Chain of UniProt P22607 (whole entry, looked up): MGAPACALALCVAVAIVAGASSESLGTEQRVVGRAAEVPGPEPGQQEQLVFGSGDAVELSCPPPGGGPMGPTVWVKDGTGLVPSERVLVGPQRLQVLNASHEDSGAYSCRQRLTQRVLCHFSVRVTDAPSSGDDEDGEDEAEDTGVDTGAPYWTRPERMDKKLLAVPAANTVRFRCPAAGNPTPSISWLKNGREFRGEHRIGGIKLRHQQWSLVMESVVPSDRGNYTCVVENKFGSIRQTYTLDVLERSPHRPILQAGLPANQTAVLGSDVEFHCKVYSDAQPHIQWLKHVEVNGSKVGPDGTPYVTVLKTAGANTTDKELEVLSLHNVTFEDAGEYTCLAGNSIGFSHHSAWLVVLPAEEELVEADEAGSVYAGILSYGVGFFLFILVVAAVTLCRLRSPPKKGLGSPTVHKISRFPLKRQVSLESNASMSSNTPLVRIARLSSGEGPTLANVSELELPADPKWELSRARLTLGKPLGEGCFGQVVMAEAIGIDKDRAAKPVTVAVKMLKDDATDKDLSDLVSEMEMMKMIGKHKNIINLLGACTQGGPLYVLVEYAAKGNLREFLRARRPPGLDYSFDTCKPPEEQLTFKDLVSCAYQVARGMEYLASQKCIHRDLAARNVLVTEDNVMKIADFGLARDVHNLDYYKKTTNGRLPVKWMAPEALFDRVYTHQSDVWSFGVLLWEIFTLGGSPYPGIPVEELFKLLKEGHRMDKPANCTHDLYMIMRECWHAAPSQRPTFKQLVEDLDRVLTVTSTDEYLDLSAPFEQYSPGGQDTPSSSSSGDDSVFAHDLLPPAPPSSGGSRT
Chain of UniProt Q9UHD2 (whole entry, looked up): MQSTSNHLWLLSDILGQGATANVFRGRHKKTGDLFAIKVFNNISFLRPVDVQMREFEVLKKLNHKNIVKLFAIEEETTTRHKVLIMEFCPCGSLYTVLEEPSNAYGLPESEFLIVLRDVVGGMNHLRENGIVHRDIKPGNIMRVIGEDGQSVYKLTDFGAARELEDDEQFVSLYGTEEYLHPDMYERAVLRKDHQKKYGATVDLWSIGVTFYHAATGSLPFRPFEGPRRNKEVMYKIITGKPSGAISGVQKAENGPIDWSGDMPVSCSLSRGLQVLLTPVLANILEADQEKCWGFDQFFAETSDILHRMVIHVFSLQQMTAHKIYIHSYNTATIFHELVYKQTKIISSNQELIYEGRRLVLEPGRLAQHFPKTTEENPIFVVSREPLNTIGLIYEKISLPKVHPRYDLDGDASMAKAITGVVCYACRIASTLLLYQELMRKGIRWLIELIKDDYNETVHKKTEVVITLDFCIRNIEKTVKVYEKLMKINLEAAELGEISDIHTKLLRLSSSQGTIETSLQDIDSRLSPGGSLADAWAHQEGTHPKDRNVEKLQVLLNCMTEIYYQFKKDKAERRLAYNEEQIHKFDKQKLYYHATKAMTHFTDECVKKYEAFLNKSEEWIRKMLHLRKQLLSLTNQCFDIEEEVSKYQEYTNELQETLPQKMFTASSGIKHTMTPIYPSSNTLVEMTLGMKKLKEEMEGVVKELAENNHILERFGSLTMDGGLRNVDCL
Chain of UniProt Q96PY6 (whole entry, looked up): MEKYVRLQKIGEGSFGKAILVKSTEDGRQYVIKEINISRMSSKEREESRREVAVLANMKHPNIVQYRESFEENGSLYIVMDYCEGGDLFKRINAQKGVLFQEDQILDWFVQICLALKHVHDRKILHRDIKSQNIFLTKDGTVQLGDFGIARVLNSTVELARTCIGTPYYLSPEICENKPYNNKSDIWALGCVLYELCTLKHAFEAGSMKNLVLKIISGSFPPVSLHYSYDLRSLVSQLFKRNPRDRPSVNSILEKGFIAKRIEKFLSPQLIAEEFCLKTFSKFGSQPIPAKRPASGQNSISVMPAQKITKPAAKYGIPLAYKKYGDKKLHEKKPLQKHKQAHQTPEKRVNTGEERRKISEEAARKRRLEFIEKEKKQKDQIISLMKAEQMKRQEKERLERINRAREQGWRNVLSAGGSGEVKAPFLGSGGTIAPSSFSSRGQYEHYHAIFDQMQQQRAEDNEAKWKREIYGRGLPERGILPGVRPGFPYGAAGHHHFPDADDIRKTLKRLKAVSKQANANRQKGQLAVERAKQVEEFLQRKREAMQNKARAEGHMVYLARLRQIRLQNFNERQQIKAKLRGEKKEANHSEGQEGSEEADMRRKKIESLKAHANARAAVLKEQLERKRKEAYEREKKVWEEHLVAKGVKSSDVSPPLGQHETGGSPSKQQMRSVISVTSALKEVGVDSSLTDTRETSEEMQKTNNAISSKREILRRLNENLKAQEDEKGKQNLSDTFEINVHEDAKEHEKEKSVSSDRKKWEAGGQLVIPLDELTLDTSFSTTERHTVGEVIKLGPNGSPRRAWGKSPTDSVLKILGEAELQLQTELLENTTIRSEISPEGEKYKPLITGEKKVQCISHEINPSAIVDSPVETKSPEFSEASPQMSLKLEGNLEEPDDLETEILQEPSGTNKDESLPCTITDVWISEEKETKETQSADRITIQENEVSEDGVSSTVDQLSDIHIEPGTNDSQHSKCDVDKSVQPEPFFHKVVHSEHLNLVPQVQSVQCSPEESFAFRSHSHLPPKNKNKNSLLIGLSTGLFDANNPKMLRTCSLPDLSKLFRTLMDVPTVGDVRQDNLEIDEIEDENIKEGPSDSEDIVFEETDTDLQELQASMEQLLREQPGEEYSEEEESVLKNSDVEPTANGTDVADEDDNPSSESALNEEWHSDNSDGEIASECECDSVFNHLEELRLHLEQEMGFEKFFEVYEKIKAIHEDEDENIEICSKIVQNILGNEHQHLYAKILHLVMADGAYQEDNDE
Chain of UniProt P06239 (whole entry, looked up): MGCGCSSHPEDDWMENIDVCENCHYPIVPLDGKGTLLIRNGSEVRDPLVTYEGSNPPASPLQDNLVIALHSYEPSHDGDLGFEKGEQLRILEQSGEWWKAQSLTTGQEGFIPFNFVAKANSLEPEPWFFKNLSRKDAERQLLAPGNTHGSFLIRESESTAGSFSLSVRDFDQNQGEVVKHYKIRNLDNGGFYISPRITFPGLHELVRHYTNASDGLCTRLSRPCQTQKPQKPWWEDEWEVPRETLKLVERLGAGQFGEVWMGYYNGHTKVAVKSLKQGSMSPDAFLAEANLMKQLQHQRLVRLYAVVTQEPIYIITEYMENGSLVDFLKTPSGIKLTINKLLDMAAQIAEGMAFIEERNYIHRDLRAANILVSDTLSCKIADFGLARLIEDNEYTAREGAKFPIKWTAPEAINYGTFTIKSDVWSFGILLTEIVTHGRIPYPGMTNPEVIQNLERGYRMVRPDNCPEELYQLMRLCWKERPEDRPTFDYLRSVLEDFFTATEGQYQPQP

Block 1
Cell line: mouse MPNST tumor cells
Technique: high-content immunofluorescence imaging
Measured: nuclear SOX9
Concentration: 10 µM
Time: 12 h
Notes: mean of 2 replicates
Reference: DMSO control
Direction: higher = more nuclear SOX9
For CN1CC(=O)N=C1NC(=O)Nc1cccc(Cl)c1, “nuclear SOX9 intensity” read 93.8 % of DMSO.
Under “nuclear SOX9 intensity”, CN1CCCN=C1/C=C/c1cccc(O)c1 is recorded as 91.7 % of DMSO.
CCCCOC(=O)c1ccc(O)cc1 — result for “nuclear SOX9 intensity”: 98.5 % of DMSO.

Block 2
Host: human
Medium: microsomes or S9
Concentration: 2 µM
Time: 0.5 h
For CCOCCCN1C(=O)CN(S(C)(=O)=O)CC1(C)C(=O)NCc1ccc(C)cc1 (stereo not shown), the remaining compound was 89.7%.
Cc1ccc(S(=O)(=O)N2c3c(c4ccc(Br)cc4n3C)CC=CC2c2ccccc2)cc1 (stereo not shown) gave a remaining compound of 75.1%.
O=C(N[C@H](c1ccccc1)[C@@H](O)c1ccccc1)c1ccc(F)cc1 gave a remaining compound of 82%.
COc1ccc([N+](=O)[O-])cc1C(=O)Nc1cc(C(F)(F)F)cc(C(F)(F)F)c1 gave a remaining compound of 81.3%.

Block 3
Variant: T135H
Target: ABI1, truncated, D143A, DHFR fusion (Arabidopsis thaliana)
Technique: DHFR PCA, deep sequencing
Medium: yeast
Notes: methotrexate growth selection, single substitutions
Reference: wild-type fitted maximum
Direction: higher = stronger binding
Starting sequence: PYL1, truncated, DHFR fusion (Arabidopsis thaliana); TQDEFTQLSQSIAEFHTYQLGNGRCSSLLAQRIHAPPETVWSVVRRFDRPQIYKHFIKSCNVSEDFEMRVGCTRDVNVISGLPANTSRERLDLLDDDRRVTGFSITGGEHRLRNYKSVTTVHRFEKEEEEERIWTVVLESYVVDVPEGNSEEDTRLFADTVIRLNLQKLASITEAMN; partner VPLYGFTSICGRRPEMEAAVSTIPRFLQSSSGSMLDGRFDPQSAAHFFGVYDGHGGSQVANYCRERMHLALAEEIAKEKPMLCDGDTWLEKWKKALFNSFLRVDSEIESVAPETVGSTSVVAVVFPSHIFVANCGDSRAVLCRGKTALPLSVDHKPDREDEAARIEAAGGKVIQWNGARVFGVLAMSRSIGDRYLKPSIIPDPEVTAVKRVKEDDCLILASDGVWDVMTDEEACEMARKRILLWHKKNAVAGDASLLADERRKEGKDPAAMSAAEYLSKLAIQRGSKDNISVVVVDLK
For together with: (+)-ABA 200 µM: “relative binding score” read -17.8%.
For together with: (+)-ABA 0.11 µM: “relative binding score” read -7.14%.
together with: (+)-ABA 0.0091 µM — “relative binding score”: 3.4%.
It gave 11.8% for “relative binding score” (together with: (+)-ABA 17 µM).
The “relative binding score” was 1.43% (together with: (+)-ABA 710 µM).
The “relative binding score” was -3.57% (together with: (+)-ABA 0.032 µM).

Block 4
Target: RING finger protein unkempt homolog, zinc fingers 1-6, GST-SBP tag (UNK, Homo sapiens, UniProt Q9C0B0, residues 30-357)
Chain of UniProt Q9C0B0 (30-357, looked up): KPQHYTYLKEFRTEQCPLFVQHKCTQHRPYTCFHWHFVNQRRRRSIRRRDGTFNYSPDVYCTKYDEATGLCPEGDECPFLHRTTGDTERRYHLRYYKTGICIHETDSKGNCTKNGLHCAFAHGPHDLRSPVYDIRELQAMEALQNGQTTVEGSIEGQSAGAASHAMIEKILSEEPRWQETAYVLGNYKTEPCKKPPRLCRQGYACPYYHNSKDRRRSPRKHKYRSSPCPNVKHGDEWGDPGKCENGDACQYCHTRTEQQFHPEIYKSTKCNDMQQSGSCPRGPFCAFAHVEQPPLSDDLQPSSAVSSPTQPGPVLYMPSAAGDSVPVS
Technique: RNA Bind-n-Seq
Molecule type: RNA
Medium: in vitro
Concentration: not given
Notes: RNA with constant flanks, human-mouse chimeric sites, ends assumed
Reference: input RNA pool
Direction: higher = stronger binding
The bound/input enrichment of `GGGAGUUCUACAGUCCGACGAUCUUAUCCAAGACUCAACGAAAGACUCCAACCGUUAUUCAUAAACAUUAUCAAAUUCAUCGGAUUCGACAUUUUUAUAUGAGAAAAGUCAAAUUUACUCAACAGAAUUACCAUGAUAGACUGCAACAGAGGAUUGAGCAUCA` is reported as 0.789 ratio.
With `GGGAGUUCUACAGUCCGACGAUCAGUACUGACUCAGGCGGAUUUUGCAACACCAAGCUCACAGCAGCAGCAUCUUAGUCACAGUAGGGUAGUUUUGGGGCUCUGUGGCCAGGGUUUUAUUCAUGUGCAGGUUUGGAAAAUGUACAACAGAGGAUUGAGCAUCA` the bound/input enrichment was 2.12 ratio.
For `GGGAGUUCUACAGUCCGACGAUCACUCAGAGAUCCACCUCCCAAAGUGCUGGGAGUAAAGGUGUGGCCACCACACCUAACUUGAUGGAUAUUUUAUAAAGUUAAUAUGAAUGAACUCUUGCGUCCAGGGAAGAAAGAUUUGUUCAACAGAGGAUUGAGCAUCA`, the bound/input enrichment was 0.309 ratio.
The bound/input enrichment of `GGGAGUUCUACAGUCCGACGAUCCAGCCUCAGAGCCCAGACUUCCUGGAUAUCACCAACCCUAAAGCGGUAUUAGAAAAUGCAUUGAGAAACUUCGCCUGUCUGACGACUGGGGAUGUGAUUGCUAUCAACUACAAUGAGAAGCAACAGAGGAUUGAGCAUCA` is reported as 0.583 ratio.
With `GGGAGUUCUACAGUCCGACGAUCUUUCUAUUGCAGCAAACGAUGCUAAGAAUUAAGGAUCCUAAGAAGUCCCUGGAUUUUUAUACGAGGGUUCUUGGACUGACCCUCCUGCAAAAAUGUGACUUCCCUGCUAUGAAGUUCUCGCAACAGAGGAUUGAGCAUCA` the bound/input enrichment was 0.268 ratio.
`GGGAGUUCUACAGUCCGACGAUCCGCUUGGAUGAGGCUGGUGUCACAGAUGAAGUGCUAGAUUCUGCCAUGCAAGCCUUCCUUCUGGAGGUCAUUGUUAAACAUGGGGAGCCGGCACCUUAUUUAUGUAACAAAGAUCCGUUUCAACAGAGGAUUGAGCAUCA` has a bound/input enrichment of 0.1 ratio.
The bound/input enrichment of `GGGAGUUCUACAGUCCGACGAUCUAAGUUAAGCUUUUAAUCUUUGUAAAUUGUAUAGCUUUUUAUAUUGCCAUGUUUAUUUUGUUUGGGUAAUUUGGUUCAUUAAGUACAUAGCUAAGGUAAUGAACAUCUUUUUCAGUAAUUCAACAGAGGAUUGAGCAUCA` is reported as 1.05 ratio.
`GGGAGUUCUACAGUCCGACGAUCCUGUGUGGCUUACUAAAAUGGCUUGUAAAGAAGUUUUUCCAAGCUGUAACCCAUGCUGUUAUUAUAGUUGCUGCAAAAUGUCUCUUAUGAUAUUGAUUUUAUUUGUUAACUGAAGGUCUCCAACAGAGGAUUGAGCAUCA` has a bound/input enrichment of 0.491 ratio.

Block 5
SMILES: O=C(c1ccccc1)c1ccc(N2CCOCC2)cc1O
Observed: enzyme activity
Mode: inhibitor
Concentration: 0.5 µM
Reference: control
It gave 99.6% for remaining activity (Rhodopsin kinase GRK7 (GRK7, Homo sapiens, UniProt Q8WTQ7)).
Serine/threonine-protein kinase ULK2 (ULK2, Homo sapiens, UniProt Q8IYT8) — remaining activity: 96.7%.
It gave 104% for remaining activity (Fibroblast growth factor receptor 3 (FGFR3, Homo sapiens, UniProt P22607)).
Macrophage-stimulating protein receptor (MST1R, Homo sapiens, UniProt Q04912) — remaining activity: 106%.
Tyrosine-protein kinase Lck (LCK, Homo sapiens, UniProt P06239) — remaining activity: 101%.
Glycogen synthase kinase-3 beta (GSK3B, Homo sapiens, UniProt P49841) — remaining activity: 118%.
It gave 95.9% for remaining activity (Fibroblast growth factor receptor 1 (FGFR1, Homo sapiens, UniProt P11362)).
Serine/threonine-protein kinase Nek1 (NEK1, Homo sapiens, UniProt Q96PY6) — remaining activity: 115%.
The remaining activity was 95% (Serine/threonine-protein kinase Nek6 (NEK6, Homo sapiens, UniProt Q9HC98)).
The remaining activity was 103% (Tyrosine-protein kinase JAK3 (JAK3, Homo sapiens, UniProt P52333)).
Activin receptor type-1B (ACVR1B, Homo sapiens, UniProt P36896) — remaining activity: 104%.
For Tyrosine-protein kinase FRK (FRK, Homo sapiens, UniProt P42685): remaining activity read 102%.
Mitogen-activated protein kinase kinase kinase 14 (MAP3K14, Homo sapiens, UniProt Q99558) — remaining activity: 75.1%.
The remaining activity was 97.8% (Mitogen-activated protein kinase kinase kinase 5 (MAP3K5, Homo sapiens, UniProt Q99683)).
Wee1-like protein kinase (WEE1, Homo sapiens, UniProt P30291) — remaining activity: 94.2%.
For MAP kinase-activated protein kinase 2 (MAPKAPK2, Homo sapiens, UniProt P49137): remaining activity read 102%.
For Serine/threonine-protein kinase TBK1 (TBK1, Homo sapiens, UniProt Q9UHD2): remaining activity read 100%.
For Casein kinase I isoform gamma-3 (CSNK1G3, Homo sapiens, UniProt Q9Y6M4): remaining activity read 98.8%.
The remaining activity was 107% (Serine/threonine-protein kinase TAO2 (TAOK2, Homo sapiens, UniProt Q9UL54)).
It gave 105% for remaining activity (Ephrin type-A receptor 3 (EPHA3, Homo sapiens, UniProt P29320)).
For Tyrosine-protein kinase Mer (MERTK, Homo sapiens, UniProt Q12866): remaining activity read 94.5%.
Ribosomal protein S6 kinase alpha-2 (RPS6KA2, Homo sapiens, UniProt Q15349) — remaining activity: 102%.
It gave 102% for remaining activity (Mitogen-activated protein kinase 3 (MAPK3, Homo sapiens, UniProt P27361)).
Casein kinase I isoform gamma-2 (CSNK1G2, Homo sapiens, UniProt P78368) — remaining activity: 96.1%.
It gave 101% for remaining activity (Dual specificity mitogen-activated protein kinase kinase 2 (MAP2K2, Homo sapiens, UniProt P36507)).

Block 6
Cell line: A-375
Concentration: 100 µM
Time: 18 h
For CC[C@@H](CO)NCCN[C@@H](CC)CO, the viability was 88.3%.
CCCCCCCCc1ccc(CCC(N)(CO)CO)cc1 has a viability of 8.52%.
For CC(C)(Oc1ccc(C(=O)c2ccc(Cl)cc2)cc1)C(=O)O, the viability was 97.2%.
NC(=O)N1c2ccccc2C=Cc2ccccc21 has a viability of 82.8%.

Block 7
SMILES: O=C(Nc1cccnn1)N1CC(C/C=C/c2cncc(Oc3ccc(C(F)(F)F)cn3)n2)C1
Technique: competition with immobilised ligand
Concentration: 1 µM
It gave 100% for remaining binding (RAC-beta serine/threonine-protein kinase (AKT2, Homo sapiens, UniProt P31751); cell-free assay).
Serine/threonine-protein kinase Nek3 (NEK3, Homo sapiens, UniProt P51956); cell-free assay — remaining binding: 100%.
For MAP/microtubule affinity-regulating kinase 4 (MARK4, Homo sapiens, UniProt Q96L34); cell-free assay: remaining binding read 100%.
Tyrosine-protein kinase TXK (TXK, Homo sapiens, UniProt P42681); binding — remaining binding: 100%.

Other studies, line by line
Under “patients with adverse events”, CC(C)n1cnc(-c2ccc(F)cc2)c1-c1ncc(C(=O)Nc2ccc(N3CCN(C)CC3)cc2)[nH]1 is recorded as 0% (Phase 2a trial, measured: eye disorders (SOC); idiopathic pulmonary fibrosis patients; 30 mg once daily, grade 2 maximum intensity).
